Published values pooled from the literature.
Every numbered part comes from another study and shows a few of its results, in no order.

Sample 1 — method: RNA Bind-n-Seq; molecule type: RNA; medium: in vitro; concentration: 365 nM; relative to: no-protein control; reading: higher = stronger binding
Target: RNA binding protein fox-1 homolog 2, RRM domain, GST-SBP tag (RBFOX2, Homo sapiens, UniProt O43251-10, residues 100-194)
Notes: natural RNA segment, single round, ends assumed
Constant ends, left off below: GGGAGUUCUACAGUCCGACGAUC … UGGAAUUCUCGGGUGCCAA
Residues (chain): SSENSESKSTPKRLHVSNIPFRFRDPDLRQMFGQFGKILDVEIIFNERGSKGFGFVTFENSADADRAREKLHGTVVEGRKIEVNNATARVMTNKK
Sequence	RBNS enrichment (R)
AUUUUGUAGUACACAUGAAGCAGAAGGGAAAGAAGUAGGCAGAAAUGAGCAGUUCGCUCCUCCCUGAUAAGAGUUGUCCCAAAGGGUCGCUUAAGGAAUCUGCCCCACAG	0.283
AUCACAUGCUCUCCAGGAAAGGGACGGAAUCAAUCCUGUGACCGAUGGGCUCGCAAGGAUGGGUGCCGCCGUGGGAGCCCUGCCUCUGGUGCUGGCAAGGGAUUGGGUUU	0.431
GGGGUGGGCUCUCCCUUAGGCUUGGGCAAGGCAGCCACCUGCCCUUGCUCUCCCUUAGUGUUCCCUGGCCUCCCUGCCAUCAGGUUGCUGGGAGUGGAGAUGGAGGGAUU	0.291
GCCCUUAGCCUUGUGUCAUCUGCUUUUUCGUUCUGCGAUAUGCCCAGUUCCCAAAUCAAUUAUAGGUACCUGUUUAGGAGAGAGGAAGAUUUUACCUCUCAAAGGGUGAG	0.334
ACCUAUUGCCUAUGAGAAACAUGUAAGAUAAUGUAUUUACAGCCAUUGUUACAAGUUUAUAAUGUAUUUUUCUAUCUUGUUUUAUAUGUAUGUUAUAUAACAUUCAAAAA	0.468
UCAAUGCUGUACAUCCAUCCAGUUAGUGUAACUGAAGGGAAAUGUAACUUUGUGCUGAGUUAGACAUCUGUAUUGUCAGUGAUUCUUGUAGAAUAUGUGCUCAGAUCUGA	0.334
CAGCUCUGGCUCCCGAAGGGGCAAAGCAGCCUCCUGUUUACAGAAGGUCCACGCGAGCUAUCCCCGUGGCGUUACGAAUGCAGCCAGCGCCCGGCGUUUGUGCAGGGGUG	0.709
AAUACAUUGUAGGAAAUCUUCAUAAUUGGAGAAAGUUCUGCAGCAUGGCUUUUUACGUCUGUAAAUAAAUAAUUUUAGAACAGCCUUUUUUUCUUCCAUAAACUACUAUU	0.681
CAUCUGUAGGUAGUUUGUCAUGAAAAAGUGGAGAGAAGAUGAGACUUUUGAAUGAAUGAAAAAGGGUAUCUUGAUACCCAGAAUUCCCCCCAAAGUACGGGUAAUUCAAC	2.59
CUUAUAGUAAUACAACUUACUAUUCUAGAUUCUUCUUAUCGCUGUGUUUUAUUUGCCAUGUAUCAUCUUUUGUUAUCAAGAGAAGUGUAUGAUGCUUGCUUUAUGCCAUA	0.354
AUUGCUCAGGCUGGCUUCGGACUCAGAGAUCUAUCUGCUUGCCUCCAACAUUUGAGAGCAGAGAGUUUGCACCACCACUUCCCGGUUCAAGGUUCUUUUAACUGCUAACU	0.37
UUCAUUCUUAUAUCUUCAUUAGUUCAUCAUAAAUCUGUCCAGUUGAGGCCUCAGGACCACGGCAUGAUUUCAUGACUCCGAAGUAUUUUACAGAAACAUUUUUUAAAUAA	0.657

Sample 2 — method: RNA Bind-n-Seq; molecule type: RNA; medium: in vitro; concentration: 200 nM; notes: whole 134-nt RNA, ends assumed; together with: 150 mM LiCl; relative to: input library; reading: higher = stronger binding; all molecules: 7-deaza-guanosine replaces G
Target: Ras GTPase-activating protein-binding protein 1, full length (G3BP1, Homo sapiens, UniProt Q13283)
UniProt Q13283, sequence (whole entry, looked up): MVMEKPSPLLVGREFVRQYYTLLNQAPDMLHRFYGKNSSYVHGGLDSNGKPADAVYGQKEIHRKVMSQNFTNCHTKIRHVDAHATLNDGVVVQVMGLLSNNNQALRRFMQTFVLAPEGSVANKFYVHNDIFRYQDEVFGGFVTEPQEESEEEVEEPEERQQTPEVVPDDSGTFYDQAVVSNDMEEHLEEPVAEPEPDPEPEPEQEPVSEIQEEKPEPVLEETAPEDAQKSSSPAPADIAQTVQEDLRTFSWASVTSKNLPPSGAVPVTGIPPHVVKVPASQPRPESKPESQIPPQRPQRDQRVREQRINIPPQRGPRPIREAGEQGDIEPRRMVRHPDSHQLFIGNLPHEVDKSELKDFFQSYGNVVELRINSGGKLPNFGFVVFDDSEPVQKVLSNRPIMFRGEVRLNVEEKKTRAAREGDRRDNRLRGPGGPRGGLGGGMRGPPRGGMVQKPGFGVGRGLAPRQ
Constant ends, left off below: GGGAGUUCUACAGUCCGACGAUC … UGGAAUUCUCGGGUGUCAAGG
Sequence	log2 enrichment
UGCUCUUCACCAAGGAGGACGAGCCUGGCCGCUGCGACGUCCUGAGGAACCCCCUCUACCUCCAGAGUGUGAAGCUGCAGGAAGGUAAGC	-0.0388
AGUCCUGUGCUACACAUCGUAUGUACCGAAUCGGAAAAAAAGGAAAAAAAGGAAAGGAAAGUAUUAUGUUACGCCGUUCGGAUCUGCACU	-1.5
CCUCAAGUCCUGUGCUACACAUCGUAUGUACCGAAUCGGAAAGGUGGAAAGGAAAGUAUUAUGUUACGCCGUUCGGAUCUGCACUUCCAG	0.166
CAAUGGGAAUGGACCAAAGAGUUUCAGGGAAACUCCAGUAUAUUCCAGAGUCAGAUCUAAGCUCCAGGCACGCCUGAAGAUGUGUUGCUA	-0.743
UGGGAGGUGGAUUUUGUUUAUUUUUUUAGCUCAUUUCCAGGGGGGGGAAUUUUUUUUUAAUAUGUGUCAUGAAUAAAGUUGUUUUUGAAA	0.39
UCCCAGCCGAGGACGUCGGAUGUCAUCGUCCUUGCUGCUUUGCCACCCCAUUCCCGUCAAUAAAGUGGUUUGAACCCAACCCUGGUGUCG	-0.902
CACAGACAACACGCAUCCACACAGACACAGAGGGAAGGGGUUGGGAUGGGGACAGGGUGCACAGCAGGGCGGGGUAGGACCCCAGCCCCU	0.498
UAACUUUAGAGGAGGAUCUGAUGGAUAUGGCAGUGGACGUGGAUUUGGGGAUGGCUAUAAUGGGUAUGGAGGAGGACCAGGAGGUGGCAA	0.118
UCAAGUCCUGUGCUACACAUCGUAUGUACCGAAUCGGUUUGGUUUGGGGUUUGGGAAAGUAUUAUGUUACGCCGUUCGGAUCUGCACUUC	-1.75
UCCUGUGCUACACAUCGUAUGUACCGAAUCGGGGUUUUUGGGGUUUGGGGAAAAAGGGGAAAGUAUUAUGUUACGCCGUUCGGAUCUGCA	-0.404
UCAAGUCCUGUGCUACACAUCGUAUGUACCGAAUCGGGGCCGGGGCCGGCCGGGGAAAGUAUUAUGUUACGCCGUUCGGAUCUGCACUUC	0.39

Sample 3 — method: protein-binding microarray; molecule type: double-stranded DNA, one strand shown; medium: in vitro; concentration: 250 nM; notes: 60-bp whole probe; together with: salmon DNA 0.4 mg/ml; relative to: random background probes; reading: higher = stronger binding; constant ends, left off below: GCCTAGCAC … GTCTTGATTCGCTTGACGCTGCTG
Target: Interferon regulatory factor 5, full length, phosphomimetic (IRF5, Homo sapiens, UniProt Q13568-2, residues 1-514, K96S/S451D/S453D/S456D/S462D)
Sequence	log fluorescence
CTGCCCTGGTTCCCCTGCCTGTGCTAG	-0.498 z-score
TTAGGTATCGGTATAGGTTAGTGCTAG	7.5 z-score
ATAGGTATCGACTATCGGTTAGTGCTA	8.04 z-score
TTAGATTTCGGCTATCGATTAGTGCTA	7.03 z-score
CGAGATCTCCGAGATGCCTTCGTGCTA	-0.0552 z-score
TTAGGTATCGACTTTCGGTAAGTGCTA	9.73 z-score
GACGGTTTCGACTTTCCGGACGTGCTA	6.19 z-score
CTTTCTTTGCTTCACCCTGGGTGCTAG	1.15 z-score
TCACATTGAGATTTCCAACTGTGCTAG	0.392 z-score
GACGGACCGGGTCTCGGGACGTGCTAG	-0.538 z-score
AAGGCTTTGCTTCCTGCAGAGTGCTAG	-0.386 z-score
CTAGGACTGGACTATCGGTTAGTGCTA	5.42 z-score
TTAGATTCCAGTTTCCATTAGTGCTAG	1.69 z-score
GACGAAGTGAGTATCGAGACGTGCTAG	1.74 z-score
AACAATATATATATTATATAGTGCTAG	1.04 z-score
TTAGGTATCCTAGTGCTTTAGTGCTAG	-0.387 z-score
GACGATATTAGTATCGAGACGTGCTAG	3.56 z-score
GTGGGGGGTGTGAGTGGGTGGTGCTAG	2.48 z-score
TTAGGTTACCTTTCCCTTTAGTGCTAG	0.752 z-score
TCAATTGTGGTTTTCATACTGTGCTAG	1.1 z-score
TTAGGTCTCCTACGGCTTTAGTGCTAG	-0.479 z-score
TTAGGTTTCCTTGTCCTTTAGTGCTAG	0.648 z-score
TCACCTTCAGCTCTAGGACTGTGCTAG	-0.0278 z-score

Sample 4 — method: universal PBM; molecule type: double-stranded DNA, one strand shown; medium: in vitro; concentration: 600 nM; reading: higher = stronger binding
Target: Sal-like protein 4, full length isoform A (SALL4, Homo sapiens, UniProt Q9UJQ4, residues 1-1053)
UniProt Q9UJQ4, sequence (whole entry, looked up): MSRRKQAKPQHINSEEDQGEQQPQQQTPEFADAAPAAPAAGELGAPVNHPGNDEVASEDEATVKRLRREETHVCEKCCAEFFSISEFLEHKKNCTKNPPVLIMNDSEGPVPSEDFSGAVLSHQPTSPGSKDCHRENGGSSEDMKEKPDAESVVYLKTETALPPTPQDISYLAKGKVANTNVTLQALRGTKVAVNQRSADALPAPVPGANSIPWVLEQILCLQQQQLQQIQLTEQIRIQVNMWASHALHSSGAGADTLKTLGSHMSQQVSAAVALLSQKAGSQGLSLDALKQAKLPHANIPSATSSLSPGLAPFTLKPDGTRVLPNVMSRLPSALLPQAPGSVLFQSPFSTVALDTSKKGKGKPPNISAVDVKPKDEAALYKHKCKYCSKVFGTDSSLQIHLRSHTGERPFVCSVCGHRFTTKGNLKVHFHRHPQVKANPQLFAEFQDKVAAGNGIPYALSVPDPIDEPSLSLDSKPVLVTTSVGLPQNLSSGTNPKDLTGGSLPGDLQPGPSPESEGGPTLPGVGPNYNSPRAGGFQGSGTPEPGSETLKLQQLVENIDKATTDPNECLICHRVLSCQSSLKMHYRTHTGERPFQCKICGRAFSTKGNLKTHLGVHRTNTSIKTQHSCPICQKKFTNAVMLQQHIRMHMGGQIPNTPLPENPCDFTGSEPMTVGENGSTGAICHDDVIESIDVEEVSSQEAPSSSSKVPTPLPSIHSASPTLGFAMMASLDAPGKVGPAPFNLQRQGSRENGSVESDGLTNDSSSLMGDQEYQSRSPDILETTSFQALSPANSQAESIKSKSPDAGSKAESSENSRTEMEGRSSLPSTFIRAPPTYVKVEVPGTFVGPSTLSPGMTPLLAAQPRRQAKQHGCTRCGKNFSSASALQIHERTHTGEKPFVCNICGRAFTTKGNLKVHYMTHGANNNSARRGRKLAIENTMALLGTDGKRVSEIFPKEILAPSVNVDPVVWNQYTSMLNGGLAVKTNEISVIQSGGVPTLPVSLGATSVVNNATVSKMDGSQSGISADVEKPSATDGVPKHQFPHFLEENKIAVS
Notes: 8-mer, flanks averaged, mean of replicates
Sequence	E-score
AGTCAGTC	-0.177
GCTCATTA	0.108
GCATACCC	-0.149
CATACTGG	-0.0302
GGCTGGAC	-0.327
AAACTCTG	0.0831
AGGAACGG	-0.102
CCTGGCTA	-0.2
GTAGTTGA	0.151
AGAGTTAT	0.257
ACATTAAC	0.222
ACGGGCCT	-0.307
AGTAACCG	-0.0596
AAATGCCA	0.0645
CCTTAACG	-0.125
CTCGATCC	-0.171
ACTGCGCG	-0.264
CGCTCCAC	-0.187
CTCAGAAC	-0.0148
CTGTTAAG	0.0908
AGCCAAGA	0.0993
AGCTTTTA	0.0548
ACGCTTGC	-0.127
AGCACCAA	0.0479

Repeated from above (sample 2):
Sequence	log2 enrichment
UGCUCUUCACCAAGGAGGACGAGCCUGGCCGCUGCGACGUCCUGAGGAACCCCCUCUACCUCCAGAGUGUGAAGCUGCAGGAAGGUAAGC	-0.0388
AGUCCUGUGCUACACAUCGUAUGUACCGAAUCGGAAAAAAAGGAAAAAAAGGAAAGGAAAGUAUUAUGUUACGCCGUUCGGAUCUGCACU	-1.5
CCUCAAGUCCUGUGCUACACAUCGUAUGUACCGAAUCGGAAAGGUGGAAAGGAAAGUAUUAUGUUACGCCGUUCGGAUCUGCACUUCCAG	0.166
CAAUGGGAAUGGACCAAAGAGUUUCAGGGAAACUCCAGUAUAUUCCAGAGUCAGAUCUAAGCUCCAGGCACGCCUGAAGAUGUGUUGCUA	-0.743
UGGGAGGUGGAUUUUGUUUAUUUUUUUAGCUCAUUUCCAGGGGGGGGAAUUUUUUUUUAAUAUGUGUCAUGAAUAAAGUUGUUUUUGAAA	0.39
UCCCAGCCGAGGACGUCGGAUGUCAUCGUCCUUGCUGCUUUGCCACCCCAUUCCCGUCAAUAAAGUGGUUUGAACCCAACCCUGGUGUCG	-0.902
CACAGACAACACGCAUCCACACAGACACAGAGGGAAGGGGUUGGGAUGGGGACAGGGUGCACAGCAGGGCGGGGUAGGACCCCAGCCCCU	0.498
UAACUUUAGAGGAGGAUCUGAUGGAUAUGGCAGUGGACGUGGAUUUGGGGAUGGCUAUAAUGGGUAUGGAGGAGGACCAGGAGGUGGCAA	0.118
UCAAGUCCUGUGCUACACAUCGUAUGUACCGAAUCGGUUUGGUUUGGGGUUUGGGAAAGUAUUAUGUUACGCCGUUCGGAUCUGCACUUC	-1.75
UCCUGUGCUACACAUCGUAUGUACCGAAUCGGGGUUUUUGGGGUUUGGGGAAAAAGGGGAAAGUAUUAUGUUACGCCGUUCGGAUCUGCA	-0.404
UCAAGUCCUGUGCUACACAUCGUAUGUACCGAAUCGGGGCCGGGGCCGGCCGGGGAAAGUAUUAUGUUACGCCGUUCGGAUCUGCACUUC	0.39
